Assay results collected from several papers.
A part holds a random share of what one study measured. Substitutions count along the parent as printed.

Sample 1
Target: RNA binding protein fox-1 homolog 2, RRM domain, GST-SBP tag (RBFOX2, Homo sapiens, UniProt O43251-10, residues 100-194)
Method: RNA Bind-n-Seq
Form: RNA
Sample: in vitro
Concentration: 365 nM
Setting: natural RNA segment, single round, ends assumed
Reference: no-protein control
Direction: higher = stronger binding
All sequences stand within: GGGAGUUCUACAGUCCGACGAUC … UGGAAUUCUCGGGUGCCAA
Target sequence (chain): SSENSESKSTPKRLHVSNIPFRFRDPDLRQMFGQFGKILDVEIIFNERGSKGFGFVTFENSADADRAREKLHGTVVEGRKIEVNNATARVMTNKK
Strand | RBNS enrichment (R)
UAGCUGGGUUUAUUCAAAGUGGGCGGGUCUGGGCUAUUCUUGAGAAUGUCCCUUCCAUUUCUGAGAACAAGUCAGCCCCUUCUACCUGCCUCCACCCAGGAGACUGAUGC | 0.396
UUAUUUUCCUCCACCCCACUUACUGUGAUGGGGCAAGGGAAGAACCCAGUCUUGUCCCCUGAAUUUUAUCUGUGUGCUGGGUGGCCUGGCUGAUGCAGAGGCCUGCUAAG | 0.543
ACAGAAGAACUCUGGUAAUGCUUAGUCUUGUGAGAACCAGUUAUUCUGGGCUGUGAAGGCAGUUGCCACUGUUAUGCAGUGGCUGCUUUUGAGGGACGCACUGUGAAGAA | 0.758
GCCCAGGCACUGAAUGUCUAGGACAUGCUGUGGAUGAAGAUAAAGAUGGUGGAAUAGGUUUUAUCACAUCUCUUAUUUCUCUUUUCCCCUUACUCUCUACCAUUUCCUUU | 0.29
AAGAUAUAGGGUAGAAAUAAGAGCUAUACUUACAAGAGUCAAUAGAUCACUGACUUCUCUUUAACUGUCCUGAGCUACAUCACGCCCACAAAUCUGUCUUUCAUACCACU | 0.308
GUAAAGCAAGAUGAUACAGAAAGCUGCUCUAAAAUCUCACUGAGUGAUUUCACCUUCGCCUACUAUGAAAUGUCUCAUCAGACCUGACAUGUCUGAGAUAACCAAGGUGA | 0.308
AGGGGUUCCACUGUACUUUCCGCAUAUUACUGUGUUGUUGUUUUCCUUUGUGGAUAUAUAAGCAAAUUGAGCUUGGGUGAUUUUUAUGGAGACAAUAAUUAGACAAUACU | 1.03
AGUUACAGUUUACUAAUAAAGUUAAGUCUGGUUCUGUCCUAGAGGAAAUAAAUUCACUAUUAAUUCAUGUCUUAAGUUACUUGGGUUAAAACACUUUCAGCCACCCAGAU | 0.373
UACCUGAGGUGGGGGGUUCCAUUCUACGAAGAGAGGUGGCGCUCCUUCCUUGACAUCCAGUUCCUCCUUCAGGCUCAAACACCACCUCCUUUCUUCAGGACCUGCACUUA | 1.13
GUCUGAUUUGUCUUUUUAUUUCAUGAUGCAUGUCUUUUUUUUCUUUUGUCAGGAUAACGUCAUAUAGCAUCUUGUUUGUUUUUCCUUAUCUCUAUGUACAUAUCUAUCUA | 7.05
CCUGGACCGGCCUUCUCAGAUGGCCGAAGCAGAUCCAACAUUAUCUUCCAUCUGUUUCCUUCCAUUUGCAUAUCUCCAGUAUCCAAAUACCUCCGUCUGACUCCUCAUUC | 0.45
UGGUGAAGAGCAUUUUUGUGAAGUGGGUUCUGCAAGGAGCCUAUAAAGCCAAGGGUGGUGUCCAUUUCUGGGAAUGGUUAAACACAAAAGGCUGAUAGCUGGUAUCACAU | 0.325

Sample 2
Target: ABI1, truncated, D143A, DHFR fusion (Arabidopsis thaliana)
Method: DHFR PCA, deep sequencing
Sample: yeast
Setting: methotrexate growth selection, single substitutions
With: (+)-ABA 0 µM
Reference: wild-type fitted maximum
Direction: higher = stronger binding
Parent: PYL1, truncated, DHFR fusion (Arabidopsis thaliana); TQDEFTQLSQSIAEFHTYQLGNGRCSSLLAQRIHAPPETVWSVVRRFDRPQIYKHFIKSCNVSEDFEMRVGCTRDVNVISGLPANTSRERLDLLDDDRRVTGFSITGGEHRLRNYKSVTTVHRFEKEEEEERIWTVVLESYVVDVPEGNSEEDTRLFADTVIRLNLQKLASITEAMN; partner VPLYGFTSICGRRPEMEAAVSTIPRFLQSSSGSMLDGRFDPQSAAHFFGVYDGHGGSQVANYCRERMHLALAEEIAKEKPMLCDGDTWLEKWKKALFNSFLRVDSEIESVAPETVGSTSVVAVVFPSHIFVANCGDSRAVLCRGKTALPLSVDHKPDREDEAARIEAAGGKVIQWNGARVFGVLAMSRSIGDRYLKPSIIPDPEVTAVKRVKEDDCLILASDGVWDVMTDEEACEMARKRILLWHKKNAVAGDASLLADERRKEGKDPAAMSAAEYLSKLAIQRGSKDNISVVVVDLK
Substitution | relative binding score
E64F | 0.188%
K116G | 10.6%
M68T | 4.48%
R69W | -1.35%
M176C | 6.68%
R132Y | -5.84%
G81N | 26%
L93T | 1.12%
T86I | 38.5%
S42R | 10.3%
S26E | -1.88%
P37H | 0.138%
G71S | 3%
E147T | 4.87%
L166K | 1.47%
S59V | 1.67%
H122C | -3.31%
R49F | 1.93%
D96K | 1.75%

Sample 3
Target: NFIL3, bZIP domain (human)
Method: DHFR protein complementation
Sample: yeast
Setting: single substitutions, most at no-binding floor
Reference: wild-type JUN-FOS pair
Direction: higher = stronger binding
Parent: JUN, bZIP domain (human); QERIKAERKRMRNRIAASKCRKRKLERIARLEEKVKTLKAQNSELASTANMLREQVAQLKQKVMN; partner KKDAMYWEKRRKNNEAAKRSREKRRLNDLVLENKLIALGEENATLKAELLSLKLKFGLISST
Substitution | binding fitness
V35M | -1.13 natural log
N42W | -1.44 natural log
M51T | -1.34 natural log
N42E | -1.41 natural log
M51P | -1.49 natural log
A40S | -1.33 natural log
L31Q | -1.57 natural log
A57E | -1.56 natural log
A46T | -1.37 natural log
E32G | -1.42 natural log
R53S | -1.59 natural log
Q41G | -1.41 natural log
L45D | -1.48 natural log
L52A | -1.5 natural log
T37E | -1.33 natural log
R53A | -1.5 natural log
E33H | -1.51 natural log

Sample 4
Target: CCND2, cyclin fold, Cln2 fusion (human)
Method: yeast growth competition, sequencing
Sample: yeast
Setting: weak parent motif
Reference: not given
Direction: higher = stronger binding
Parent: EXO1 docking peptide (human); KPECGRVQRAIFQ
Substitution | normalised enrichment score
Q8A | -0.124
C4A | 0.000396
Q13A | -0.109
P2A | 0.113
K1A | 0.0361
R6A | -0.164

A few entries again (sample 2):
Substitution | relative binding score
M176C | 6.68%
G81N | 26%
E147T | 4.87%
